Experimental data gathered from unrelated publications.
A part holds a random share of what one study measured. Changes are numbered by the printed parent chain.

Study 1
Target: ABI1, truncated, D143A, DHFR fusion (Arabidopsis thaliana)
Method: DHFR PCA, deep sequencing
Matrix: yeast
Setting: methotrexate growth selection, single substitutions
Added: (+)-ABA 58 µM
Relative to: wild-type fitted maximum
Reading: higher = stronger binding
Starting sequence: PYL1, truncated, DHFR fusion (Arabidopsis thaliana); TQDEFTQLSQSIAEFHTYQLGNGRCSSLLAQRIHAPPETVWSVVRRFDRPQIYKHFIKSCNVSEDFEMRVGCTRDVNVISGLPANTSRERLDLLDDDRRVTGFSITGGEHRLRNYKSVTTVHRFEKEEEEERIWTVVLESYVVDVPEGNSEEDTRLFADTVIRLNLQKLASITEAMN; partner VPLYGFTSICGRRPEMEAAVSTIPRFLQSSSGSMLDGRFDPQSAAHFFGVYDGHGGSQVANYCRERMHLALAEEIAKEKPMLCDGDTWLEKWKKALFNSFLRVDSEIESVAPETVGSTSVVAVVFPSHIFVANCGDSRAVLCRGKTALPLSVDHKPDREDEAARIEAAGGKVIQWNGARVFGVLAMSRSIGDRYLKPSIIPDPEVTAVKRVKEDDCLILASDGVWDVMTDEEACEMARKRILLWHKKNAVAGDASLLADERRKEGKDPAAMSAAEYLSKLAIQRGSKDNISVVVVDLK
Variant	relative binding score [%]
T135F	-1.77
P146D	12.2
K58D	68.6
E109A	76.3
T17S	92.9
G81T	20.1
E38T	64.9
E129H	105
V142N	54.4
M176Q	83.3
L82G	23.3
V62E	3.95
T154R	-1.44
Y115D	1.5
T17N	64.8

Study 2
Target: Histone acetyltransferase KAT6A, winged helix 1, GST fusion (KAT6A, Homo sapiens, UniProt Q92794, residues 1-85)
Method: protein binding microarray
Form: double-stranded DNA, one strand shown
Matrix: in vitro
Tested at: not given
Setting: 8-mer, flanks averaged, mean of 2 arrays, mostly near background
Relative to: not given
Reading: higher = stronger binding
Construct (chain): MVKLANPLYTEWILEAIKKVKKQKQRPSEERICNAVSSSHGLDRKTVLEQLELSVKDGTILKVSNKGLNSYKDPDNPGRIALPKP
Strand	E-score
TGCTCGAA	-0.099
ACAGTTGC	-0.114
AATTAGGC	-0.102
GAAGCGAA	-0.006
AAACATTC	-0.199
AGGGGCGC	0.218
TGAGCGCA	0.0876
AGGGTGCA	-0.282
GCTGACGA	-0.141
GCCGCTAC	0.381
TCATATAA	-0.165
CCCACGAA	-0.25
ACCGCGCT	0.406
AGAGCGCC	0.324
AGCCAACT	-0.244
AAGAGGGT	-0.124
ACAAGGAC	-0.249
TCTATGCA	-0.235
GAGGGAAA	-0.221
ACCTACAT	-0.118
AACCTGTC	-0.0844
AGCGTTGA	-0.0595
AGATTTAC	-0.0901
ACCGTGAT	0.0746
AGAGTATC	-0.113

Study 3
Target: Sal-like protein 4, full length isoform A (SALL4, Homo sapiens, UniProt Q9UJQ4, residues 1-1053)
Chain of UniProt Q9UJQ4 (whole entry, looked up): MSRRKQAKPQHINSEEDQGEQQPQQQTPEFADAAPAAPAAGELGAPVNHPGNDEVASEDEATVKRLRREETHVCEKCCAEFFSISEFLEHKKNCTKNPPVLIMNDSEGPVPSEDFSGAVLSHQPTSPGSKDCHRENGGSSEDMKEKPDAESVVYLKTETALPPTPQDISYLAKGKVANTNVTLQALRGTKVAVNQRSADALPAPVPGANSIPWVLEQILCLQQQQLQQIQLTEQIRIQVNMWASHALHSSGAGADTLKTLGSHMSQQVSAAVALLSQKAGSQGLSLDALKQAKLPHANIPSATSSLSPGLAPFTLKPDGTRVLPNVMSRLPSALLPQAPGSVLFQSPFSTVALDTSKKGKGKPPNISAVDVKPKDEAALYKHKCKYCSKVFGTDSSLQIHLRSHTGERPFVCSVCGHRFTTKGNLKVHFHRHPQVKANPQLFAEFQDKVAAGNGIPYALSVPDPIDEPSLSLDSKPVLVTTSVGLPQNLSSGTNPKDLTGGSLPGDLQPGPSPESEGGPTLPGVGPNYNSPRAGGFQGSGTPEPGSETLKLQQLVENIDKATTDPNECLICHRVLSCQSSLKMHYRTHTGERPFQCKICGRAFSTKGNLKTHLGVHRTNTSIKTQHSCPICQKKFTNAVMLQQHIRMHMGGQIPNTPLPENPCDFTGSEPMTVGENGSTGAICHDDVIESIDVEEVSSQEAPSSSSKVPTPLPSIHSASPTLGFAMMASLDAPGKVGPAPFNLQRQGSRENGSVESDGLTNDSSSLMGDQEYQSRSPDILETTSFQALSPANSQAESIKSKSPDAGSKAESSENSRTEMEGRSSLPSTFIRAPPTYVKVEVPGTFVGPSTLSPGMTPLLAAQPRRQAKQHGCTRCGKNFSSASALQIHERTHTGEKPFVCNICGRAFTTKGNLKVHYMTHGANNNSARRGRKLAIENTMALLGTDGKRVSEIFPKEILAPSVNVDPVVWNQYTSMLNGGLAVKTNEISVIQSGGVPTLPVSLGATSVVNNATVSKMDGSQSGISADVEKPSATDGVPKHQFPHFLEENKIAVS
Method: universal PBM
Form: double-stranded DNA, one strand shown
Matrix: in vitro
Tested at: 600 nM
Setting: 8-mer, flanks averaged, mean of replicates
Reading: higher = stronger binding
Strand	E-score
AAACACTC	0.144
AGTGATCA	-0.0363
AGCGCTAT	0.131
GGGATTTA	0.0466
ATCATACC	0.182
TCTCGGAA	-0.12
ATCCTGCA	0.107
CCCTAAAG	-0.174
AGGACCAA	-0.165
CGGCGGTA	-0.256
CCATCATA	0.195
CTTTTCAC	0.129
GTCCTATA	0.0689
AACACTTG	-0.09
CAGTTGGC	-0.16
AAATGCGG	-0.103
TCGGGTAA	0.0922
GACACTAA	-0.069
ATTCGATC	0.0931
CCTGCGTC	-0.307
GGCTAAAA	0.0698
AGCGTGTC	-0.155
GCCAACTA	-0.0455
TGGCCGAA	-0.105
CATAAAGG	0.248

Study 4
Target: PABPC1L2, full length, GST fusion (mouse, UniProt A0ABA7IW68)
Method: RNAcompete
Form: RNA
Matrix: in vitro
Tested at: 20 nM
Setting: 7-mer, probes averaged, single round
Relative to: mean of 7-mers
Reading: higher = stronger binding
Construct (chain): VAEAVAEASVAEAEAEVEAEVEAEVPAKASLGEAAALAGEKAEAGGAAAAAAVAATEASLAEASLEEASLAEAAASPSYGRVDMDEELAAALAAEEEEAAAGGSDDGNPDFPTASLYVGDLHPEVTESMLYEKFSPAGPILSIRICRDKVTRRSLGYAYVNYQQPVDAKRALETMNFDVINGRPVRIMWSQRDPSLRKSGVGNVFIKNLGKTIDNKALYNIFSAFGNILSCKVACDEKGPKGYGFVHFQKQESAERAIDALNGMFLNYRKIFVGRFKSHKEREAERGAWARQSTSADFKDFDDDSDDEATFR
Strand	7-mer Z-score
GUGAAUA	-0.05
AGUCCCA	-0.142
GGUUUAC	-0.273
CUUCCGC	-0.483
AGGGCGA	0.481
CCUUGUG	-0.371
GUUCUUU	-0.248
AACCUAG	-0.0736
AGCAAAG	0.233
UAACGGA	-0.0772
UCCACAG	-0.177
GAAGUUC	-0.184
GACUGUU	-0.306
CGACAUC	-0.222
CCCUCUA	-0.269
GCAGCGU	0.00617
GUGAGAC	-0.164
UUUCGUA	-0.331
GUUCACC	-0.365

Study 5
Target: Interferon regulatory factor 5, full length, phosphomimetic (IRF5, Homo sapiens, UniProt Q13568-2, residues 1-514, K96S/S451D/S453D/S456D/S462D)
Method: protein-binding microarray
Form: double-stranded DNA, one strand shown
Matrix: in vitro
Tested at: 250 nM
Setting: 60-bp whole probe
Added: salmon DNA 0.4 mg/ml
Relative to: random background probes
Reading: higher = stronger binding
Shared flanks, not repeated: GCCTAGCAC … GTCTTGATTCGCTTGACGCTGCTG
Strand	log fluorescence [z-score]
GACGGTATCGGGCATCGGGACGTGCTA	1.35
TTACGTATCGGACTGGGTTAGTGCTAG	2.24
GTCGGTTTCCTTTTCCTGACGTGCTAG	2.05
GACGGTTTCGGGTTTCGTGACGTGCTA	7.21
GACGGTCTCCTTATCTTGACGTGCTAG	-0.065
TCATTTTTTTACTTCGGACTGTGCTAG	0.848
TTAGGACTGGACTCTGGGTTAGTGCTA	-0.386
TTAGGACTGCTTTTCCTTTTGTGCTAG	0.255
GACGAATTACCTCTGGAGCAGTGCTAG	-0.183
TTAGATATCGGGACTAGATTAGTGCTA	1.28
GACGGTTCCGGTTTCGGAACGTGCTAG	5.7
GAAGATTTCAGTTTCGAGACGTGCTAG	7
GACGGTCTCGGTATCGGTACGTGCTAG	3.28
TTAGGTATCGACTATCTGTTAGTGCTA	4.36
TTAGATATCGGGTAGCGATTAGTGCTA	2.3
TTAGGTTTCAGTATCGGTTAGTGCTAG	9.49
GACGATTTCGGGGCTGGAGACGTGCTA	1.27
TTAGGTTTCGTTTTCCTTTAGTGCTAG	8.23
TCATCTCTGTTTATGTCACTGTGCTAG	0.844
GGGAAAATGGCTTTGCAGATGTGCTAG	-0.351
TTCTAAATATCTTTGTTGAAGTGCTAG	0.632
GACGGTATCGGGACTGGGGTCGTGCTA	1.16

Study 6
Target: Protein C-ets-1 (ETS1, Homo sapiens, UniProt P14921, residues 1-441, full length assumed)
Chain of UniProt P14921 (whole entry, looked up): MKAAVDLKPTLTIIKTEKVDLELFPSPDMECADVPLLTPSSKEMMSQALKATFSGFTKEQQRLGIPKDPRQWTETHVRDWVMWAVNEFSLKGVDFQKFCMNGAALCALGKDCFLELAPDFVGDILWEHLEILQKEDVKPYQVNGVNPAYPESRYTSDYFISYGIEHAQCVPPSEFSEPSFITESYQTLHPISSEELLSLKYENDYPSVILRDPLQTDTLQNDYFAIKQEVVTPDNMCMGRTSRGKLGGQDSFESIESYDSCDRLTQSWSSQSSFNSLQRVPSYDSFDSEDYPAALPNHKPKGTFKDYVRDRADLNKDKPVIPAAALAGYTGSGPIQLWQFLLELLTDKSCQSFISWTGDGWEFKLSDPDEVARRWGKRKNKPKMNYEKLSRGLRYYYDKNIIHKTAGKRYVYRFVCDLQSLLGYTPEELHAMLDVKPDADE
Method: protein-binding microarray
Form: double-stranded DNA, one strand shown
Matrix: in vitro
Tested at: not given
Setting: k-mer, scored over probes, only values ≥0.25
Reading: higher = stronger binding
Strand	E-score
CACCCGGA	0.325
GCCCTTCC	0.369
CCGCCGGA	0.429
GGAGCGGA	0.378
CCTTCCGA	0.269
GTCCGTCA	0.286
CCGCCATA	0.264
GATATAGC	0.306
AACAGGAC	0.301
GCGGAAGC	0.477
AGTCCGGA	0.4
AAGGAAAT	0.442
GGCCGGAC	0.377
CGCCTTCC	0.289
CAGGAAAC	0.468
CCCGGATA	0.453
CCGGTAAA	0.392
CTATGTCC	0.252

Study 7
Organism: Saccharomyces cerevisiae
Read-out: peptide binding
Method: yeast competitive growth sequencing
Form: peptide
Strain: cyclin-Cln2 fusion strain
Tested at: concentration not given
Setting: RxL motif peptides
Reading: direction not given
Molecule	binding score
TKVRRNLFNQELL	1.45
SFEPRNLLSLFED	0.585
SNARRSLNFGGST	1.43

Study 8
Target: Fragile X messenger ribonucleoprotein 1, C-terminal low-complexity region (Fmr1, Mus musculus, UniProt P35922)
Method: RNA Bind-n-Seq
Form: RNA
Matrix: in vitro
Tested at: 200 nM
Setting: whole 134-nt RNA, ends assumed
Added: 150 mM LiCl
Relative to: input library
Reading: higher = stronger binding
All molecules: 7-deaza-guanosine replaces G
Shared flanks, not repeated: GGGAGUUCUACAGUCCGACGAUC … UGGAAUUCUCGGGUGUCAAGG
Strand	log2 enrichment
UCCUGUGCUACACAUCGUAUGUACCGAAUCGGGAAAAAAGGAAAAAAGGGGAAAAAAGGAAAGUAUUAUGUUACGCCGUUCGGAUCUGCA	-0.723
GCAGGAAGUAAAAACAAAUGGAAAUGCUUCGGAUAGUGGCAGGGGAAAGGGUUGCUAAGGAAAGGGUGGGAUGGGAGUGGGUAAAGAGUU	1.67
CCUGUGCUACACAUCGUAUGUACCGAAUCGGGGAAAAAAGGGGAAAAAAGGGAAAAAAGGAAAGUAUUAUGUUACGCCGUUCGGAUCUGC	0.373
AAGUCCUGUGCUACACAUCGUAUGUACCGAAUCGGGCCCGGGGCCCGGGGCCCGGGGAAAGUAUUAUGUUACGCCGUUCGGAUCUGCACU	-2.47
UGGCCCUGGUGGCAUGCGGGGAGGAAGAGGUGGCCUCAUGGAUCGUGGUGAUCCCGGUGGAAUGUUCAGAGGUGGCCGUGGUGGAGACAG	-0.262
UCCUUUGUGUUUACAAAAGCACUGACCCUUUACCUUUUCUUUAGCAAGAAGAAUGGAAUGAACAUAAUGCCAAAAUAAUUAAAUAUAUAA	2.28
CUCAAGUCCUGUGCUACACAUCGUAUGUACCGAAUCGGAAGGGGAAGGGGAAGGAAAGUAUUAUGUUACGCCGUUCGGAUCUGCACUUCC	-0.192
UGGGAGGUGGAUUUUGUUUAUUUUUUUAGCUCAUUUCCAGGGGUGGGAAUUUUUUUUUAAUAUGUGUCAUGAAUAAAGUUUUUUUUGAAA	0.336
UCCUGUGCUACACAUCGUAUGUACCGAAUCGGAAAAAAGGGGAAAAAAGGGAAAAAAGGAAAGUAUUAUGUUACGCCGUUCGGAUCUGCA	-0.37
ACUGAGGUACUGCCCUCCCCUGCCCCCUACCCUCUCCCUUGUCCCUCUACCCCGUUCCUCCCCUUCCCUCCAUUCCCUUUCCCCAACCUG	1.98
CAAGUCCUGUGCUACACAUCGUAUGUACCGAAUCGGUUUUGGGGUUUUGGUUUUGGAAAGUAUUAUGUUACGCCGUUCGGAUCUGCACUU	-1.89

Single results of other studies
Substance	target	test	system	setting	scale	measurement	value
PhoQ, residues 284 288 289 292 302 303 SQSLSM	PhoP, residues 12 14 15 18 19 NIMAP (Escherichia coli, UniProt P23836)	Sort-seq, measured: YFP reporter	E. coli	PhoQ-PhoP variant library, added: 10 µM Mg2+	relative to: high Mg2+ state, higher = stronger signaling	fold induction	0.359

For quick reference, copied from above (study 3):
Strand	E-score
CCCTAAAG	-0.174
AGGACCAA	-0.165
CGGCGGTA	-0.256
CCATCATA	0.195
CTTTTCAC	0.129
GTCCTATA	0.0689
AACACTTG	-0.09
CAGTTGGC	-0.16
AAATGCGG	-0.103
TCGGGTAA	0.0922
GACACTAA	-0.069
ATTCGATC	0.0931
CCTGCGTC	-0.307
